Results gathered from unrelated publications.
Each numbered part is a random draw from the data of one study; scales do not carry over between parts.
UniProt P22607, sequence (whole entry, looked up): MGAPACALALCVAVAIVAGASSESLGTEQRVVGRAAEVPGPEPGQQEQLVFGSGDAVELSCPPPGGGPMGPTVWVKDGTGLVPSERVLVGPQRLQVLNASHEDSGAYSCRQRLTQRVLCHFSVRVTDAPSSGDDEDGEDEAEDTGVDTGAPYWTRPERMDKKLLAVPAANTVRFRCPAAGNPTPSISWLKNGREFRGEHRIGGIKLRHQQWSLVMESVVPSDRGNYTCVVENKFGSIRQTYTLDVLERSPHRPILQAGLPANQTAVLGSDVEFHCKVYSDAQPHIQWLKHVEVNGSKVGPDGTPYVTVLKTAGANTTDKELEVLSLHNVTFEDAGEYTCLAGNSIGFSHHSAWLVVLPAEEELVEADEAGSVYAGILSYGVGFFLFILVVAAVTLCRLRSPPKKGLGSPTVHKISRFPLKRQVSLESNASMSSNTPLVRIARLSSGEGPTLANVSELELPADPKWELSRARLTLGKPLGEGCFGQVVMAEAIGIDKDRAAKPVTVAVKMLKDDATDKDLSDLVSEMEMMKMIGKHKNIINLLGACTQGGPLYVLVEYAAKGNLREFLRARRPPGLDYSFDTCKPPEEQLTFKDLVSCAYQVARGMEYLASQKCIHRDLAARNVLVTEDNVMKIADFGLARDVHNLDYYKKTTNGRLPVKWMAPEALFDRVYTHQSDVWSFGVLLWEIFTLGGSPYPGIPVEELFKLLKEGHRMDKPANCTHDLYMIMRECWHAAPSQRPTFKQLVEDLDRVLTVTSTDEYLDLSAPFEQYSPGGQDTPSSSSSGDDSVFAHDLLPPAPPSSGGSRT
UniProt P49137, sequence (whole entry, looked up): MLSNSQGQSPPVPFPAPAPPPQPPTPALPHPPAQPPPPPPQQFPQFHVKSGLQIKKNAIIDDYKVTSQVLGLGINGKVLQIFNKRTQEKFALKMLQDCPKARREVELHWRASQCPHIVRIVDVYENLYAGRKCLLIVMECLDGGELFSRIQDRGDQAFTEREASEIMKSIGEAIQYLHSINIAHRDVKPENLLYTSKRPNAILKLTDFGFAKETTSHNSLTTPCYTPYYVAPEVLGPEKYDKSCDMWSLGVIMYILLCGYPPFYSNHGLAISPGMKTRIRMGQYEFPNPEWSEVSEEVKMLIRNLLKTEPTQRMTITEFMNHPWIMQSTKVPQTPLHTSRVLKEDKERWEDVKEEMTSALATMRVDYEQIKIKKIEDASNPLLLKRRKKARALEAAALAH
UniProt Q96PY6, sequence (whole entry, looked up): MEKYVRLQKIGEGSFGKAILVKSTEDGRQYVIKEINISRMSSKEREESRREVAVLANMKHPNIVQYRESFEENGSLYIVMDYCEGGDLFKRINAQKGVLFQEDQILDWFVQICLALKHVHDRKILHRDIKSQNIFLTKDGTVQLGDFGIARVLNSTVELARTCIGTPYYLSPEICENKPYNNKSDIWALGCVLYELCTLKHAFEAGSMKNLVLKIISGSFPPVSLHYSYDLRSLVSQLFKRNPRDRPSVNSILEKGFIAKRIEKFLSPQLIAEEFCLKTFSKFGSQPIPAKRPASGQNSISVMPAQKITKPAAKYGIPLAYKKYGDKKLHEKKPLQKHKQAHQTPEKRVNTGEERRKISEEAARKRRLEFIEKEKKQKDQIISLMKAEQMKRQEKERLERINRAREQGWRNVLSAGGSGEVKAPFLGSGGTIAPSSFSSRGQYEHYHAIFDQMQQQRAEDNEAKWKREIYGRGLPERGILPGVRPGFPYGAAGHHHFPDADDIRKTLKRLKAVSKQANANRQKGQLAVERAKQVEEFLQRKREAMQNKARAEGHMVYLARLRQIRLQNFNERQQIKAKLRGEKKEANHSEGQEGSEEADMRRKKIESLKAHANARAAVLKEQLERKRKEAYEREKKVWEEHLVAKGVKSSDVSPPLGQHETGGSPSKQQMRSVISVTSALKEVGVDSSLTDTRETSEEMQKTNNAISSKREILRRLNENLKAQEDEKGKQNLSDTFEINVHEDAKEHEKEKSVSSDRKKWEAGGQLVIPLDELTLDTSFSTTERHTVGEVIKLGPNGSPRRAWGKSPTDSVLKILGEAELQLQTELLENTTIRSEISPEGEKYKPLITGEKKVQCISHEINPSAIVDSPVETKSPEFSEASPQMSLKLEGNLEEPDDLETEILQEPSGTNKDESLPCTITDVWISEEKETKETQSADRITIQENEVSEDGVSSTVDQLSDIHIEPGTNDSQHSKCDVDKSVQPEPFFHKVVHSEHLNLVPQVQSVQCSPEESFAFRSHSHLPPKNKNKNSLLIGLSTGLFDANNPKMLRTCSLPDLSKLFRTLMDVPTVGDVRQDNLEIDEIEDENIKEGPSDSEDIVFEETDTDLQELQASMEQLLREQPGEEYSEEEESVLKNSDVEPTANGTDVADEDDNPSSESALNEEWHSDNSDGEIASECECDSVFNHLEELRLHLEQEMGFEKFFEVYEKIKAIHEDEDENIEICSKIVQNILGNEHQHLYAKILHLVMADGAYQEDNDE
UniProt P30291, sequence (whole entry, looked up): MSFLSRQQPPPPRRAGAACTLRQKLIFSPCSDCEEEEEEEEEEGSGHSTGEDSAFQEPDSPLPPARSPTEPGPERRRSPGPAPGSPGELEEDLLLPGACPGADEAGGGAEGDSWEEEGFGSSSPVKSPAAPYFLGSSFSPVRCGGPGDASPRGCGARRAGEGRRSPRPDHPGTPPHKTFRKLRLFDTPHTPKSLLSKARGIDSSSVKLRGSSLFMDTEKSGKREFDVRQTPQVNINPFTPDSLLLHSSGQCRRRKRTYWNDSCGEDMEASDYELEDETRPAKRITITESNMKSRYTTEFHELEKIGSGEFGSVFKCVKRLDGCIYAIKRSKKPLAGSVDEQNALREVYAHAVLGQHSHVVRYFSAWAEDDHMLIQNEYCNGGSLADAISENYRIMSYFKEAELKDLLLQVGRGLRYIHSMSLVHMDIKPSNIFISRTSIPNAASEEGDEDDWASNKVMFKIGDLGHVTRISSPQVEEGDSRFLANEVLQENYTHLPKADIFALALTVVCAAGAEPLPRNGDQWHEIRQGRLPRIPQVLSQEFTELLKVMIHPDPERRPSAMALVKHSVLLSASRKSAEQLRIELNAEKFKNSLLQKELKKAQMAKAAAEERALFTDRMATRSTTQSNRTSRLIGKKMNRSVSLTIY
UniProt P52333, sequence (whole entry, looked up): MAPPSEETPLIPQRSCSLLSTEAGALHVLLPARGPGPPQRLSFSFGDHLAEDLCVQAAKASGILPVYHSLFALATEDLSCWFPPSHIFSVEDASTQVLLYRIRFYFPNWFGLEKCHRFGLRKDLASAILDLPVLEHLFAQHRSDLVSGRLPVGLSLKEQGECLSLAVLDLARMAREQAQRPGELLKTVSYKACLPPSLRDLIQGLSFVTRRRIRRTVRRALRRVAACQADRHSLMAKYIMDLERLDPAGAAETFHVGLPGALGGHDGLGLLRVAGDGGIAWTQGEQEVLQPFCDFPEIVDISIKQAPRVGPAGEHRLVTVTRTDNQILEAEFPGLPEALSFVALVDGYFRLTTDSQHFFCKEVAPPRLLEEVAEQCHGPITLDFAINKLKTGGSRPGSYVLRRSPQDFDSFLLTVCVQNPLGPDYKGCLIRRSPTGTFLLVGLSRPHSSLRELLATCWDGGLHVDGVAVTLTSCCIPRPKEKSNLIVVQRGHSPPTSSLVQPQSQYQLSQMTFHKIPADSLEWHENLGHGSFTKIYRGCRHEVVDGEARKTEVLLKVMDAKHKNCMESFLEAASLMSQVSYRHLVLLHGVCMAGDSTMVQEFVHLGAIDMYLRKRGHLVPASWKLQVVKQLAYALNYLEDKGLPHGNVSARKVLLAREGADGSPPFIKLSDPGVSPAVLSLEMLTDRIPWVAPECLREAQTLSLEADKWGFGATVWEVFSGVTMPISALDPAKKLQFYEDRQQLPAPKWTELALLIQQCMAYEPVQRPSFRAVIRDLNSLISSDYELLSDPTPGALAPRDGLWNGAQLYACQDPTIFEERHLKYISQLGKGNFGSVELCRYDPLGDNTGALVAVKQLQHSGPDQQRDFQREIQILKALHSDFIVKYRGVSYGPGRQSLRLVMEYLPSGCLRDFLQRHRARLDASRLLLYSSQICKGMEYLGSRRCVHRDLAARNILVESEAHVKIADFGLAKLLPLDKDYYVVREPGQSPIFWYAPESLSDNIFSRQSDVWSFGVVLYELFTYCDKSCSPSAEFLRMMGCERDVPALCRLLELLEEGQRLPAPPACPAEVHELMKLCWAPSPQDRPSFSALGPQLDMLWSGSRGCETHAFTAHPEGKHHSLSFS
UniProt P49841, sequence (whole entry, looked up): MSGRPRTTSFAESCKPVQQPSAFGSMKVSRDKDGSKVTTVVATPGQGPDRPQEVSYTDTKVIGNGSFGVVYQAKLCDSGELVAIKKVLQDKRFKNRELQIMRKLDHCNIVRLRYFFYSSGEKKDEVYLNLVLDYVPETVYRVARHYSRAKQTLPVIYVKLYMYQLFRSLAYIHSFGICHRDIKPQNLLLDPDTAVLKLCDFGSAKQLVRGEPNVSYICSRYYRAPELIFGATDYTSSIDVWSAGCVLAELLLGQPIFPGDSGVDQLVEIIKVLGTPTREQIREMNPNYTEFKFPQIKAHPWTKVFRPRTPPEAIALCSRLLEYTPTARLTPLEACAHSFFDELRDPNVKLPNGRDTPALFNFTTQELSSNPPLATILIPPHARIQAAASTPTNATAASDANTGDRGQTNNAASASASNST
UniProt P27361, sequence (whole entry, looked up): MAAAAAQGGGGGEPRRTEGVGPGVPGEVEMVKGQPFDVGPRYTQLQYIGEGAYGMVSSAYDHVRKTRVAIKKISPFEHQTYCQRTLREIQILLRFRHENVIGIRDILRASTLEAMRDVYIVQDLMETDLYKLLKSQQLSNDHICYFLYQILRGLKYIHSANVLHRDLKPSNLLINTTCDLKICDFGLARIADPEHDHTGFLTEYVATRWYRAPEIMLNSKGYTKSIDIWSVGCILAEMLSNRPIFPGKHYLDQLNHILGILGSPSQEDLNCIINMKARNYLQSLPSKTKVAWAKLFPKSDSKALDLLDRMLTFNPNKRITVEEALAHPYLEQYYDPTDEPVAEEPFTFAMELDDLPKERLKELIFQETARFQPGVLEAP

Sample 1 — observed: peptide-MHC binding; form: peptide; tested at: concentration not given
Target: HLA class I histocompatibility antigen, A alpha chain, allele A*25:01 (Homo sapiens, UniProt P04439)
| Molecule | binding |
| --- | --- |
| KLGEGFKSL | inactive |
| WDAYIPHYV | inactive |
| RLDKPLWLH | inactive |
| LPSCPTNFCIF | inactive |
| GPSPSHKSV | inactive |
| TMLVRQMTK | inactive |
| FPNLQVDPT | inactive |
| AMYDPQTYY | inactive |

Sample 2 — observed: enzyme activity; mode: inhibitor; tested at: 0.5 µM; reference: control
SMILES: COC[C@H]1OC(=O)c2coc3c2[C@@]1(C)C1=C(C3=O)[C@@H]2CCC(=O)[C@@]2(C)C[C@H]1OC(C)=O
| target | remaining activity |
| --- | --- |
| Serine/threonine-protein kinase Nek6 (NEK6, Homo sapiens, UniProt Q9HC98) | 103% |
| Mitogen-activated protein kinase 3 (MAPK3, Homo sapiens, UniProt P27361) | 94.7% |
| Casein kinase I isoform gamma-3 (CSNK1G3, Homo sapiens, UniProt Q9Y6M4) | 96.2% |
| Serine/threonine-protein kinase Nek1 (NEK1, Homo sapiens, UniProt Q96PY6) | 83.3% |
| MAP kinase-activated protein kinase 2 (MAPKAPK2, Homo sapiens, UniProt P49137) | 96.9% |
| Tyrosine-protein kinase JAK3 (JAK3, Homo sapiens, UniProt P52333) | 95.5% |
| Serine/threonine-protein kinase A-Raf (ARAF, Homo sapiens, UniProt P10398) | 82.5% |
| Tyrosine-protein kinase FRK (FRK, Homo sapiens, UniProt P42685) | 94.3% |
| Fibroblast growth factor receptor 1 (FGFR1, Homo sapiens, UniProt P11362) | 89.6% |
| Serine/threonine-protein kinase ULK3 (ULK3, Homo sapiens, UniProt Q6PHR2) | 84.4% |
| Casein kinase I isoform gamma-2 (CSNK1G2, Homo sapiens, UniProt P78368) | 85.8% |
| Fibroblast growth factor receptor 3 (FGFR3, Homo sapiens, UniProt P22607) | 96.4% |
| Mitogen-activated protein kinase kinase kinase 5 (MAP3K5, Homo sapiens, UniProt Q99683) | 105% |
| Wee1-like protein kinase (WEE1, Homo sapiens, UniProt P30291) | 96.9% |
| Glycogen synthase kinase-3 beta (GSK3B, Homo sapiens, UniProt P49841) | 80.5% |

Sample 3 — target: UBE2D3 UBC core domain (UniProt P61077); method: yeast two-hybrid; medium: yeast; setting: mostly zero background; reference: not given; direction: higher = stronger interaction
B1: RNF181 RING domain (UniProt Q9P0P0); chain VIRGSQAELKCPVCLLEFEEEETAIEMPCHHLFHSSCILPWLSKTNSCPLCRYELPTDDDTY
B2: RNF135 RING domain (UniProt Q8IUD6); chain PVWLAEDDLGCIICQGLLDWPATLPCGHSFCRHCLEALWGARDARRWACPTCRQGAAQQPHLR
B3: ZNRF3 RING domain (UniProt Q9ULT6); chain DTLSSSSTSDCAICLEKYIDGEELRVIPCTHRFHRKCVDPWLLQHHTCPHCRHNIIEQKGNP
B4: TRIM22 RING domain (UniProt Q8IYM9); chain KEVKMSPQEGQKRDVCEHHGKKLQIFCKEDGKVICWVCELSQEHQGHQTFRINEVVKECQEK
B5: DTX1 RING domain (UniProt Q86Y01); chain QKVKNPPDEDCTICMERLVTASGYEGVLRHKGVRPELVGRLGRCGHMYHLLCLVAMYSNGNKDGSLQCPTCKAIYGEKTGTQ
Construct (chain): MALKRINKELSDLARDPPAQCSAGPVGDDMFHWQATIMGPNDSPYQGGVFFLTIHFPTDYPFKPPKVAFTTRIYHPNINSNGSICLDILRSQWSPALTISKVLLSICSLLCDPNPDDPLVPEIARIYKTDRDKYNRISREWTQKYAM
| Molecule | lacZ reporter activity |
| --- | --- |
| B1 (RNF181 RING domain) | 13500 |
| B2 (RNF135 RING domain) | 0 |
| KEQLEKHNDICAICYQDMKSAVITPCSHFFHAGCLKKWLYVQETCPLCHCHLKNSSQLP (RNF145 RING domain (UniProt Q96MT1)) | 0 |
| NTAPSLTVPECAICLQTCVHPVSLPCKHVFCYLCVKGASWLGKRCALCRQEIPEDFLDK (RNF146 RING domain (UniProt Q9NTX7)) | 0 |
| B3 (ZNRF3 RING domain) | 0 |
| B4 (TRIM22 RING domain) | 0 |
| MDDQGCPRCKTTKYRNPSLKLMVNVCGHTLCESCVDLLFVRGAGNCPECGTPLRKSNFRV (MNAT1 RING domain (UniProt P51948)) | 0 |
| B5 (DTX1 RING domain) | 11900 |

Other studies, line by line
| SMILES | cell line | test | setting | how to read | endpoint | value |
| --- | --- | --- | --- | --- | --- | --- |
| NCCCNCCSP(=O)(O)O | mouse MPNST tumor cells | high-content nuclear imaging, measured: cell number | 10 µM, 12 h, mean of 2 replicates | reference: plate mean, higher = more cells | nuclei count | 0.407 z-score |

Excerpt of the above (sample 2):
| target | remaining activity |
| --- | --- |
| Tyrosine-protein kinase FRK (FRK, Homo sapiens, UniProt P42685) | 94.3% |
| Fibroblast growth factor receptor 1 (FGFR1, Homo sapiens, UniProt P11362) | 89.6% |
| Serine/threonine-protein kinase ULK3 (ULK3, Homo sapiens, UniProt Q6PHR2) | 84.4% |
